Results gathered from unrelated publications.
Numbers after ± are the reported error.
Cell line: MDA-MB-231

O=[C]=[Re-2]1(=[C]=O)(=[C]=O)([O]C(=O)c2cccnc2)[n+]2ccc(-c3ccccc3)c3ccc4c(-c5ccccc5)cc[n+]1c4c32  IC50 (cell growth or viability, resazurin; 72 h): 4.24 µM
CC/C(=C(\c1ccccc1)c1ccc(OCCN(C)CCCCC(=O)NCCc2c[nH]c3ccc(OC)cc23)cc1)c1ccccc1  IC50 (cell survival, MTT; day 9, dosed days 2, 4, 7): 7.3 µM
CN(C)C1=[S+][Au-2]2([S]1)[c]1ccccc1-c1cccc[n+]12.F[P-](F)(F)(F)(F)F (centres unmarked)  IC50 (cell growth or viability, MTT; 72 h): 0.35 µM
Oc1cc2c3c(c1)COc1cc(O)cc(c1-3)CC2  IC50 (cell growth or viability, MTT; 48 h): 48.6 µM
Cc1cc(C#N)cc(C)c1Oc1cc(Nc2ccc(C#N)cc2)nc2ccncc12  IC50 (48 h): > 128 µM
C#C[C@@]12OC(C)(C)O[C@@H]1CC1C3CCc4cc(Oc5no[n+]([O-])c5S(=O)(=O)c5ccccc5)ccc4C3CCC12C (some centres unmarked)  IC50 (cell growth or viability, MTT; 48 h): 0.019 µM
O=C(O)CNc1nc(Cl)nc(NNC(=O)c2ccc(Nc3nc(Nc4ccc(C(=O)NNc5nc(Cl)nc(NCC(=O)O)n5)cc4)nc(Nc4ccc(C(=O)NNc5nc(Cl)nc(NCC(=O)O)n5)cc4)n3)cc2)n1  IC50 (cell growth or viability, MTT; 72 h): 0.045 µM
C=CC(=C)CC[C@]1(C)[C@H](C)CC[C@@]23C(=C[C@H](OC(=O)C(C)C)C[C@@H]12)[C@@H](OC(C)=O)O[C@H]3OC(C)=O  IC50 (cell growth or viability, SRB): 22.9 µM
CN[C@@H](C)C(=O)N[C@H]1CN(C(=O)Cc2ccccc2)CC[C@H]2CC[C@@H](C(=O)NCc3ccccc3F)N2C1=O  IC50 (cell growth or viability; 96 h): 0.221 µM
N#C[CH2][Pd]1[O]c2ccc(Br)cc2C=Nc2cccnc2[N]1C1CCCCC1  IC50 (cell growth or viability, MTT; 48 h): 34.2 µM
Cc1cc(C=O)cc(C)c1Oc1cc(Nc2ccc(C#N)cc2)nc2ccncc12  IC50 (48 h): 89.9 ± 2.1 µM
COc1ccc(/N=N/C(=S)N2CCCCC2)cc1  IC50 (cell growth or viability, resazurin; 48 h): > 50 µM
CN(C)c1cc[n+](CCCCC[n+]2ccc(N(C)C)cc2)cc1  IC50 (cell growth or viability, MTT; 72 h): 54.7 µM
COc1c(C)c(OS(=O)(=O)c2ccccc2)c(C)c2c1C(=O)CC(c1ccccc1)O2 (centres unmarked)  IC50 (cell growth or viability, SRB; 72 h): > 50 µM
CCCCCCCCCCCCCCCOC(=O)/C=C/c1ccc(O)c(OC)c1  IC50 (cell viability, MTT; 48 h, serum-free medium): 2.7 ± 0.4 µg/mL
CC(C)c1cccc(C(C)C)c1[N+]#[C][Pt-]([Cl])([Cl])=[C](Nc1ccc(CN[C](NC(C)(C)C)=[Au][Cl])cc1)Nc1c(C(C)C)cccc1C(C)C  IC50 (cell growth or viability): > 100 µM
CCn1[c]([Au-]([Cl])([Cl])[Cl])[n+](CC)c2ccc(C(=O)OC)cc21  IC50 (cell growth or viability, crystal violet; 96 h): 9.1 µM
CC(C)c1cccc(C(C)C)c1-n1c2c([n+](-c3c(C(C)C)cccc3C(C)C)[c]1[Cu-][Cl])-c1cccc3cccc-2c13  IC50 (cell growth or viability, MTT; 72 h): 4 µM
Brc1ccc2nc3c4ccc[n+]5c4c4c(ccc[n+]4[Ru-4]546([n+]5ccccc5-c5cccc[n+]54)[n+]4ccccc4-c4cccc[n+]46)c3nc2c1.[O-][Cl+3]([O-])([O-])O.[O-][Cl+3]([O-])([O-])O  IC50 (cell growth or viability, MTT; 72 h): > 100 µM
CCCCCCCCCCCCCCCC(=O)Oc1ccc(CO)cc1OC(=O)CCCCCCCCCCCCCCC  IC50 (cell viability, MTT; 48 h, serum-free medium): no effect
COc1cc(/C=C/C(=O)/C=C/c2cn(-c3ccccc3)nc2C(=O)O)ccc1O  IC50 (cell growth; 72 h): 22.6 ± 4.74 µM
C[C@@H]1CC[C@@H]([C@@](O)(CNCc2ccc(F)cc2)COCc2ccc(F)cc2)[C@H](OCc2ccc(F)cc2)C1  IC50 (cell growth or viability, MTT; 72 h): 1.9 µM
CCn1[c]([Au-][Cl])[n+](CC)c2ccc(C(=O)OC)cc21  IC50 (cell growth or viability, crystal violet; 96 h): 9.5 µM
COc1ccc(CNC[C@@](O)(COCc2ccc(OC)cc2)[C@@H]2CC[C@@H](C)C[C@H]2OCc2ccc(OC)cc2)cc1  IC50 (cell growth or viability, MTT; 72 h): 2.8 µM
C#C[C@@]1(O)[C@H](O)CC2C3CCc4cc(Oc5no[n+]([O-])c5S(=O)(=O)c5ccccc5)ccc4C3CCC21C (some centres unmarked)  IC50 (cell growth or viability, MTT; 48 h): 0.0553 µM
COC(=O)[C@H](C(C)C)N(C)C(=O)[C@@H]1CCCN1C(=O)[C@H](C)N(C)C(=O)OC(C)(C)C  IC50 (cell growth or viability, SRB): 39 µM
Cc1cc(C)c([N+]#[C][Pd-2]([Cl])([Cl])[C]#[N+]c2c(C)cc(C)cc2C)c(C)c1  IC50 (cell growth or viability): 24 µM
O=C(CN1C(=O)NC(c2ccccc2)(c2ccccc2)C1=O)N/N=C/c1ccccc1  IC50 (cell growth or viability, resazurin; 24 h): 240 µM
O=C(/C=C/c1ccccc1)c1ccc(OCc2cn(CCN3C(=O)c4cccc5cccc(c45)C3=O)nn2)cc1  IC50 (cell growth or viability, MTT; 24 h): > 100 µM
CN[C@@H](C)C(=O)N[C@H]1CN(C(=O)Cc2ccccc2)CC[C@H]2CC[C@@H](C(=O)NC(c3ccccc3)c3ccccc3)N2C1=O  IC50 (cell growth or viability; 96 h): 0.052 µM
O=C1c2cccc[c]2[Au-]([Cl])([Cl])[N+]1=P(c1ccccc1)(c1ccccc1)c1ccccc1  IC50 (cell growth or viability, MTT; 24 h): 102 µM
CCCC/C=N/NC(=O)c1cc2cc(Nc3nccc(-c4cccnc4)n3)ccc2[nH]1  IC50 (cell growth or viability, MTT; 48 h): > 20 µM
C=CC(OC(C)=O)c1cc(OC)cc(OC)c1 (centres unmarked)  IC50 (MTT; 24 h): > 50 µM
COC(=O)C1CN1S(=O)(=O)c1ccc2cc(N(C)C)ccc2c1 (centres unmarked)  IC50 (cell growth or viability, MTT; 48 h): 38 µM
O=[C]=[Re-2]1(=[C]=O)(=[C]=O)([O]C(=O)c2ccccc2Nc2cccc(C(F)(F)F)c2)[n+]2ccc(-c3ccccc3)c3ccc4c(-c5ccccc5)cc[n+]1c4c32  IC50 (cell growth or viability, resazurin; 72 h): 3.27 µM
Nc1ncnc2c1ncn2CCN1C(=O)/C(=N\N=C2/NC(=O)CS2)c2cc(F)ccc21  IC50 (cell growth or viability, SRB; 72 h): 191 µM
CCCCCCCCCCCCCCCOC(=O)/C=C/c1ccc(O)cc1  IC50 (cell viability, MTT; 48 h, serum-free medium): 1.5 ± 0.1 µg/mL
O=C(O)CNc1nc(NNC(=O)c2ccc(Nc3nc(Nc4ccc(C(=O)NNc5nc(NCC(=O)O)nc(N6CCCCC6)n5)cc4)nc(Nc4ccc(C(=O)NNc5nc(NCC(=O)O)nc(N6CCCCC6)n5)cc4)n3)cc2)nc(N2CCCCC2)n1  IC50 (cell growth or viability, MTT; 72 h): 0.081 µM
Cc1cc(C)c([N+]#[C][Pt-]([Cl])([Cl])=[C](Nc2ccc(CN[C](Nc3c(C)cc(C)cc3C)=[Au][Cl])cc2)Nc2c(C)cc(C)cc2C)c(C)c1  IC50 (cell growth or viability): > 100 µM
C[C@]12CC/C(=N/O)C=C1CCC1C2CC[C@]2(C)/C(=C/c3ccccn3)CCC12 (some centres unmarked)  IC50 (cell growth or viability, MTT; 72 h): 5.2 µM
CC(C)c1cccc(C(C)C)c1[N+]#[C][Pd-]([Cl])([Cl])=[C](Nc1ccc(CN[C](Nc2c(C(C)C)cccc2C(C)C)=[Au][Cl])cc1)Nc1c(C(C)C)cccc1C(C)C  IC50 (cell growth or viability): > 100 µM
COc1ccc2cc([C@H](C)C(=O)[O][Re-2]3(=[C]=O)(=[C]=O)(=[C]=O)[n+]4ccc(-c5ccccc5)c5ccc6c(-c7ccccc7)cc[n+]3c6c54)ccc2c1  IC50 (cell growth or viability, resazurin; 72 h): 6.48 µM
COc1cc2c(cc1Oc1no[n+]([O-])c1S(=O)(=O)c1ccccc1)CCC1C2CCC2(C)C(O)CCC12 (centres unmarked)  IC50 (cell growth or viability, MTT; 48 h): 0.0384 µM
CO[C@H]1C(=O)c2ccc(O)cc2O[C@@H]1c1ccc(O)c(O)c1 (relative stereo)  IC50 (cell growth or viability, MTT; 72 h): 201 µM
[Cl][Cu-][c]1n(-c2c(C(c3ccccc3)c3ccccc3)cc(C(c3ccccc3)c3ccccc3)cc2C(c2ccccc2)c2ccccc2)c2c([n+]1-c1c(C(c3ccccc3)c3ccccc3)cc(C(c3ccccc3)c3ccccc3)cc1C(c1ccccc1)c1ccccc1)-c1cccc3cccc-2c13  IC50 (cell growth or viability, MTT; 72 h): > 50 µM
COc1cc2c(cc1-c1coc3c(CC=C(C)C)c(OC)c(OC)cc3c1=O)OCO2  IC50 (cell growth or viability, MTT; 72 h): 20.8 µM
Cc1ccc(C(C)C)cc1.[Cl-].[Cl-].[Fe+2].[Ru+2].c1cc[cH-]c1.c1ccc(P(=NCc2ccccn2)(c2ccccc2)[c-]2cccc2)cc1  IC50 (cell growth or viability, MTT; 24 h): > 125 µM
COc1ccc(COC[C@](O)(CNCc2ccccc2)[C@@H]2CC[C@@H](C)C[C@H]2OCc2ccc(OC)cc2)cc1  IC50 (cell growth or viability, MTT; 72 h): 2.1 µM
C#CCOCC1=C(C(=O)OCC)C(c2cccc(Cl)c2)N2C=CSC2=N1 (centres unmarked)  IC50 (cell growth or viability, MTT): 52.7 µM
Oc1ccccc1-c1nn(-c2ccccc2)[n+](-c2ccccc2)n1  IC50 (cell growth or viability, resazurin; 72 h): 130 µM
CN[C@@H](C)C(=O)N[C@H]1CN(C(=O)Cc2ccccc2)CC[C@H]2CC[C@@H](C(=O)NCc3ccc(C(N)=O)cc3)N2C1=O  IC50 (cell growth or viability; 96 h): > 10 µM
Clc1ccc2ccc3[n+](c2c1)[Ir-3]12([c]4ccccc4-3)([c]3ccccc3-c3ccc4ccc(Cl)cc4[n+]31)[n+]1ccccc1-c1cccc[n+]12.F[P-](F)(F)(F)(F)F  IC50 (cell growth, MTT; 72 h): 0.21 ± 0.01 µM
CN[C@@H](C)C(=O)N[C@H]1CN(C(=O)Cc2ccccc2)CC[C@H]2CC[C@@H](C(=O)NCc3ccc(Cl)cc3)N2C1=O  IC50 (cell growth or viability; 96 h): 0.021 µM
O=[C]=[Re-2]1(=[C]=O)(=[C]=O)([O]S(=O)(=O)c2cccc3ccccc23)[n+]2ccc(-c3ccccc3)c3ccc4c(-c5ccccc5)cc[n+]1c4c32  IC50 (cell growth or viability, resazurin; 72 h): 1.53 µM
CN1CCCC1CCO/N=C1/C=C2CCC3C(CC[C@]4(C)/C(=C/c5ccccn5)CCC34)[C@@]2(C)CC1 (some centres unmarked)  IC50 (cell growth or viability, MTT; 72 h): > 100 µM
COc1cc2c(=O)c(-c3ccc4c(c3)OCO4)coc2c2c1OC(C)(C)C=C2  IC50 (cell growth or viability, MTT; 72 h): 12.9 µM
C[C@@H]1CC[C@@H]([C@](O)(COCc2ccccc2)Cn2cnc3ccccc32)[C@H](OCc2ccccc2)C1  IC50 (cell growth or viability, MTT; 72 h): 5 µM
Cc1cc(C)c([N+]#[C][Pt-]([Cl])([Cl])=[C](Nc2ccc(CN[C](NC(C)(C)C)=[Au][Cl])cc2)Nc2c(C)cc(C)cc2C)c(C)c1  IC50 (cell growth or viability): > 100 µM
COc1cc(-c2coc3cc(O)cc(O)c3c2=O)ccc1O  IC50 (cell growth or viability, MTT; 24 h): > 100 µM

Excerpt of the above:
Clc1ccc2ccc3[n+](c2c1)[Ir-3]12([c]4ccccc4-3)([c]3ccccc3-c3ccc4ccc(Cl)cc4[n+]31)[n+]1ccccc1-c1cccc[n+]12.F[P-](F)(F)(F)(F)F  IC50 (cell growth, MTT; 72 h): 0.21 ± 0.01 µM
CN[C@@H](C)C(=O)N[C@H]1CN(C(=O)Cc2ccccc2)CC[C@H]2CC[C@@H](C(=O)NCc3ccc(Cl)cc3)N2C1=O  IC50 (cell growth or viability; 96 h): 0.021 µM
O=[C]=[Re-2]1(=[C]=O)(=[C]=O)([O]S(=O)(=O)c2cccc3ccccc23)[n+]2ccc(-c3ccccc3)c3ccc4c(-c5ccccc5)cc[n+]1c4c32  IC50 (cell growth or viability, resazurin; 72 h): 1.53 µM
CN1CCCC1CCO/N=C1/C=C2CCC3C(CC[C@]4(C)/C(=C/c5ccccn5)CCC34)[C@@]2(C)CC1 (some centres unmarked)  IC50 (cell growth or viability, MTT; 72 h): > 100 µM
COc1cc2c(=O)c(-c3ccc4c(c3)OCO4)coc2c2c1OC(C)(C)C=C2  IC50 (cell growth or viability, MTT; 72 h): 12.9 µM
C[C@@H]1CC[C@@H]([C@](O)(COCc2ccccc2)Cn2cnc3ccccc32)[C@H](OCc2ccccc2)C1  IC50 (cell growth or viability, MTT; 72 h): 5 µM
Cc1cc(C)c([N+]#[C][Pt-]([Cl])([Cl])=[C](Nc2ccc(CN[C](NC(C)(C)C)=[Au][Cl])cc2)Nc2c(C)cc(C)cc2C)c(C)c1  IC50 (cell growth or viability): > 100 µM
COc1cc(-c2coc3cc(O)cc(O)c3c2=O)ccc1O  IC50 (cell growth or viability, MTT; 24 h): > 100 µM
